Measured values gathered from unrelated publications.
± marks the error that the study gave.
Method: steady-state kinetics
B1: enzyme (Streptomyces venezuelae, UniProt Q9ZGI2); chain SGADTGAGAGMFRALFRQAVEDDRYGEFLDVLAEASAFRPQFASPEACSERLDPVLLAGGPTDRAEGRAVLVGCTGTAANGGPHEFLRLSTSFQEERDFLAVPLPGYGTGTGTGTALLPADLDTALDAQARAILRAAGDAPVVLLGHSGGALLAHELAFRLERAHGAPPAGIVLVDPYPPGHQEPIEVWSRQLGEGLFAGELEPMSDARLLAMGRYARFLAGPRPGRSSAPVLLVRASEPLGDWQEERGDWRAHWDLPHTVADVPGDHFTMMRDHAPAVAEAVLSWLDAIEGIEGAGK
B2: DTYMK (Homo sapiens, UniProt P23919); chain MAARRGALIVLEGVDRAGKSTQSRKLVEALCAAGHRAELLRFPERSTEIGKLLSSYLQKKSDVEDHSVHLLFSANRWEQVPLIKEKLSQGVTLVVDRYAFSGVAFTGAKENFSLDWCKQPDVGLPKPDLVLFLQLQLADAAKRGAFGHERYENGAFQERALRCFHQLMKDTTLNWKMVDASKSIEAVHEDIRVLSEDAIRTATEKPLGELWK
B3: enzyme (UniProt Q53796); chain MTEHPRAHTAHLRTARLELTPLDPAADARHLHHAYGDEEVMRWWTRPACADPAETERYLTSCAAAPGARLWTIRAPDGTVPGMAGLLGGTDVPGLTWLLRRDSWGHGYATEAAAAVVGHALEDGGLDRVEAWIEAGNRRSLAVAARVGLTERARLAQHYPHRPGPHEMVVLGKARAEEPLTTLAVITELPVRDVAATLRLVEAALGARTAFAIGDPPEFAEAALTPWSAGPRFRLAAVPGPGPVEPVRLHLDAAGTADSLHRRAVDAGARVDGPPVRRPWGRSEFVITLPEGHELTVSAPV
B4: genB3 A452T/L401C/Q310N (Micromonospora echinospora, UniProt Q2MG50); chain MDSANLTNRGLVERARRVTAAENYDIGTRFSAMIQSGEGAWLTDVEGNRYVDLTASSGTIILGHRNQAVTEAITRQIRDFGTAFASTLSVPRVELAERLCERYECAEKVVFHKTGSEGTAMAARLARAATGRELILSCGYHGWHEWQLAGETFGYQQTTGVVGFGYNEKALAKMLEAFGNEVAGVLISPELLYFDVEFYQRMYALCARYDVPFMMDEVYTGFRAGPKGVHGLGVPADVVVVSKGLANGHSLAAVMGRRDIIDAYDVSGINGTYTREVPPMAAAMAVLDVLDTPGVYEHAEAMGRRLADGMREILTGEGIPNWVGGPALMFDTVLPNDDLGWEIYKTAHDFGVYFEDSGTQCVTTAFDEAAVDHALTAFRKATRQVIADRPDIAPTSGGELTEERKLDFAEETFGGLLRDDERTNALIDETIEKVVNRDRSIKPVLIPAQN
B5: CMPK1 (Homo sapiens, UniProt P30085); chain MKPLVVFVLGGPGAGKGTQCARIVEKYGYTHLSAGELLRDERKNPDSQYGELIEKYIKEGKIVPVEITISLLKREMDQTMAANAQKNKFLIDGFPRNQDNLQGWNKTMDGKADVSFVLFFDCNNEICIERCLERGKSSGRSDDNRESLEKRIQTYLQSTKPIIDLYEEMGKVKKIDASKSVDEVFDEVVQIFDKEG
B6: PPIP5K2 (Homo sapiens, UniProt O43314); chain MSEAPRFFVGPEDTEINPGNYRHFFHHADEDDEEEDDSPPERQIVVGICSMAKKSKSKPMKEILERISLFKYITVVVFEEEVILNEPVENWPLCDCLISFHSKGFPLDKAVAYAKLRNPFVINDLNMQYLIQDRREVYSILQAEGILLPRYAILNRDPNNPKECNLIEGEDHVEVNGEVFQKPFVEKPVSAEDHNVYIYYPTSAGGGSQRLFRKIGSRSSVYSPESNVRKTGSYIYEEFMPTDGTDVKVYTVGPDYAHAEARKSPALDGKVERDSEGKEVRYPVILNAREKLIAWKVCLAFKQTVCGFDLLRANGQSYVCDVNGFSFVKNSMKYYDDCAKILGNIVMRELAPQFHIPWSIPLEAED
B7: AK1 (Homo sapiens, UniProt P00568); chain MEEKLKKTKIIFVVGGPGSGKGTQCEKIVQKYGYTHLSTGDLLRSEVSSGSARGKKLSEIMEKGQLVPLETVLDMLRDAMVAKVNTSKGFLIDGYPREVQQGEEFERRIGQPTLLLYVDAGPETMTQRLLKRGETSGRVDDNEETIKKRLETYYKATEPVIAFYEKRGIVRKVNAEGSVDSVFSQVCTHLDALK
B8: protein (Thermotoga neapolitana, UniProt B9K712); chain MKMLYDLAKKRKTVRRFKKEKPPLEDLIYSLKVANEAPSGMNAQPWRFLIVEDEKLKGQIRRVCERSEKTFYENVRGRLKEWLDEKRFTWRKPFLKEAPYLLLVFSEKSAPYSRESVWLAVGYLLLALEEKGLGSVPYTPPDFREVEKLVNTPSELRLEVILPVGYPDDPKPKYPRNEVIVRYNTF
Chain of UniProt P10635 (whole entry, looked up): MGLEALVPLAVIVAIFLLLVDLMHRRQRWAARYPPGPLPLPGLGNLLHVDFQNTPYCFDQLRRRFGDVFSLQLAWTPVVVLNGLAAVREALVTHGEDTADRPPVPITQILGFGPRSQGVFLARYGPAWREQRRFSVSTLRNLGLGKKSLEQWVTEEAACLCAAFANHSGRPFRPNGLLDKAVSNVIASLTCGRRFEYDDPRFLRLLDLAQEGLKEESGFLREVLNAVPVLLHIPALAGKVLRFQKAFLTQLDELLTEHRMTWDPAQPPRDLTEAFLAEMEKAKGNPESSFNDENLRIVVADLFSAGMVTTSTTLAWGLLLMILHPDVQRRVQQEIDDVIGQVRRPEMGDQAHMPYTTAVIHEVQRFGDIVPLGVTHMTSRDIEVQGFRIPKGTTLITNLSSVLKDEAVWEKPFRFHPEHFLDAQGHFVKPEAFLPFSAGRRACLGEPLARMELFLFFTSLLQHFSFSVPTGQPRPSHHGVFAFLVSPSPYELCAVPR

Molecule | substrate | setting | kcat/Km [M⁻¹ s⁻¹]
enzyme (Streptomyces filamentosus, UniProt A0ABY4UVI6) | CC(C)C[C@H](NC(=O)c1cc(O)cc(-c2ccccn2)n1)C(=O)O | pH 8, 30 °C | 88.5
B1 (enzyme) | CC[C@@H](O)[C@H](C)/C=C/C(=O)[C@H](C)C[C@H](C)[C@H](OC)[C@@H](C)C(=O)SCCNC(C)=O | – | 43.3 ± 0.833
CYP2D6 (Homo sapiens, UniProt P10635) | CC(C)(C)NC(CO)c1cc(Cl)c(N)c(C(F)(F)F)c1 | pH 7.4, 37 °C, not purified | 76.2
B2 (DTYMK) | Cc1cn([C@@H]2C[C@@H](O)[C@H](COP(=O)(O)O)O2)c(=O)[nH]c1=O | with: ATP 2 mM, Mg2+ 2 mM | 900
B3 (enzyme) | Cc1c(N)nc([C@H](CC(N)=O)NC[C@H](N)C(N)=O)nc1C(=O)N[C@H](C(=O)N[C@H](C)[C@@H](O)[C@H](C)C(=O)N[C@H](C(=O)NCCc1nc(-c2nc(C(=O)NCCCCNC(=N)N)cs2)cs1)[C@@H](C)O)[C@@H](O[C@@H]1O[C@@H](CO)[C@@H](O)[C@H](O)[C@@H]1O[C@H]1O[C@H](CO)[C@@H](O)[C@H](OC(N)=O)[C@@H]1O)c1c[nH]cn1 | pH 7.5, 30 °C | 13000
B4 (genB3 A452T/L401C/Q310N) | CN[C@@H]1[C@@H](O)[C@@H](O[C@@H]2[C@@H](O)[C@H](O[C@H]3O[C@H](CN)[C@@H](O)[C@H](OP(=O)(O)O)[C@H]3N)[C@@H](N)C[C@H]2N)OC[C@]1(C)O | 30 °C | 45.5
B5 (CMPK1) | Nc1ccn(C2OC(COP(=O)(O)O)C(O)C2O)c(=O)n1 | 37 °C, with: ATP 1 mM | 6.5e+06
B6 (PPIP5K2) | O=P(O)(O)O[C@H]1[C@@H](OP(=O)(O)O)[C@H](OP(=O)(O)O)[C@@H](OP(=O)(O)OP(=O)(O)O)[C@H](OP(=O)(O)O)[C@H]1OP(=O)(O)O | – | 2.2e+06
B7 (AK1) | Nc1ccn(C2OC(COP(=O)(O)O)C(O)C2O)c(=O)n1 | 37 °C, with: ATP 1 mM | 9500
B8 (protein) | N[C@@H](Cc1ccc(O)c(I)c1)C(=O)O | pH 7.4, 25 °C | 120000 ± 40000

Repeated from above:
Molecule | substrate | setting | kcat/Km [M⁻¹ s⁻¹]
B4 (genB3 A452T/L401C/Q310N) | CN[C@@H]1[C@@H](O)[C@@H](O[C@@H]2[C@@H](O)[C@H](O[C@H]3O[C@H](CN)[C@@H](O)[C@H](OP(=O)(O)O)[C@H]3N)[C@@H](N)C[C@H]2N)OC[C@]1(C)O | 30 °C | 45.5
